Results from different studies.
Each numbered part is a random draw from the data of one study; scales do not carry over between parts.
Chain of UniProt P78368 (whole entry, looked up): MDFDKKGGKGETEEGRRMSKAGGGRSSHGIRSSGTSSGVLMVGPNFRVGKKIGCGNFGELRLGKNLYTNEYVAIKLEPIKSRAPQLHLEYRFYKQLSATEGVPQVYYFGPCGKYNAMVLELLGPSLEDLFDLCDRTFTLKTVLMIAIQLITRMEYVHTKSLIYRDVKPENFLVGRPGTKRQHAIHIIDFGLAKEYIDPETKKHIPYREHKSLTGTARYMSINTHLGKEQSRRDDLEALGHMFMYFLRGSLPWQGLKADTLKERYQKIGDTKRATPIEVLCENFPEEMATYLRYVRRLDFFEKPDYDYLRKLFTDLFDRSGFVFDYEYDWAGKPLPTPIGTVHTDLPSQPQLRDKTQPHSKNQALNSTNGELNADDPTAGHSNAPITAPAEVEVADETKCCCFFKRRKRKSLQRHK
Chain of UniProt P06239 (whole entry, looked up): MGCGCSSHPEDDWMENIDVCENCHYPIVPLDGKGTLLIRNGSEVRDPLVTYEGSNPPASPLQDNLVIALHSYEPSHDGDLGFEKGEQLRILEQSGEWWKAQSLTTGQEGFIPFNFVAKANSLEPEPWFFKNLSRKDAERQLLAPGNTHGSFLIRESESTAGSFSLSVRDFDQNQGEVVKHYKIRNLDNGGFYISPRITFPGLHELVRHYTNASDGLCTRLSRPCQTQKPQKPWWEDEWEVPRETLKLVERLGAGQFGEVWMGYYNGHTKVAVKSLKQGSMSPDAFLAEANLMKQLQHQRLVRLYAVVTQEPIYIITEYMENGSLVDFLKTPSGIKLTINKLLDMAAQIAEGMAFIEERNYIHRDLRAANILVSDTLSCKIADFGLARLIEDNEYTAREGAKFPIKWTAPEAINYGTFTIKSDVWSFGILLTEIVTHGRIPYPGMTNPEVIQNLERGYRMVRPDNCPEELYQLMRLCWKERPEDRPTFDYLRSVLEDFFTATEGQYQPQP
Chain of UniProt P49137 (whole entry, looked up): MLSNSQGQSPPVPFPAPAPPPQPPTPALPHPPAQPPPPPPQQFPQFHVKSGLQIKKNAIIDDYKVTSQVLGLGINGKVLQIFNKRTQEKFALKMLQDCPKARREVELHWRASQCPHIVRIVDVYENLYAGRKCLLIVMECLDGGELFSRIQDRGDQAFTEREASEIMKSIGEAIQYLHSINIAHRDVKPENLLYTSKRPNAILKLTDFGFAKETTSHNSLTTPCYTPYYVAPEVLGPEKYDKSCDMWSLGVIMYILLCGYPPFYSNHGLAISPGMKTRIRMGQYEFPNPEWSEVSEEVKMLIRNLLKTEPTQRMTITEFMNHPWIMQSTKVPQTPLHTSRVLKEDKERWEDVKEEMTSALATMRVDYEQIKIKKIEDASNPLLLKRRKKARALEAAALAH
Chain of UniProt Q9Y6M4 (whole entry, looked up): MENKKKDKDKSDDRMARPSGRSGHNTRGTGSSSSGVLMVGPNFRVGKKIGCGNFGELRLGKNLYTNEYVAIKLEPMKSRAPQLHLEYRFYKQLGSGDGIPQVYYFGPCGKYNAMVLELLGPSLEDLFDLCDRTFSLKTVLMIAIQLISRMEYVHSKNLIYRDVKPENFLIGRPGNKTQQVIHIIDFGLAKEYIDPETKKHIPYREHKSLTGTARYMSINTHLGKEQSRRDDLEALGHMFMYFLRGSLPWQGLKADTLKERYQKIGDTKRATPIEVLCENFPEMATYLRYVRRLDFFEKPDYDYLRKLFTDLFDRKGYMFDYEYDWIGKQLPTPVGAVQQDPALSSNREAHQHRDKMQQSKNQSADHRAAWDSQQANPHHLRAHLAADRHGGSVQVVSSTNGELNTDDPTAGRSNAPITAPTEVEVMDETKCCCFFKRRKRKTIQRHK
Chain of UniProt Q9UHD2 (whole entry, looked up): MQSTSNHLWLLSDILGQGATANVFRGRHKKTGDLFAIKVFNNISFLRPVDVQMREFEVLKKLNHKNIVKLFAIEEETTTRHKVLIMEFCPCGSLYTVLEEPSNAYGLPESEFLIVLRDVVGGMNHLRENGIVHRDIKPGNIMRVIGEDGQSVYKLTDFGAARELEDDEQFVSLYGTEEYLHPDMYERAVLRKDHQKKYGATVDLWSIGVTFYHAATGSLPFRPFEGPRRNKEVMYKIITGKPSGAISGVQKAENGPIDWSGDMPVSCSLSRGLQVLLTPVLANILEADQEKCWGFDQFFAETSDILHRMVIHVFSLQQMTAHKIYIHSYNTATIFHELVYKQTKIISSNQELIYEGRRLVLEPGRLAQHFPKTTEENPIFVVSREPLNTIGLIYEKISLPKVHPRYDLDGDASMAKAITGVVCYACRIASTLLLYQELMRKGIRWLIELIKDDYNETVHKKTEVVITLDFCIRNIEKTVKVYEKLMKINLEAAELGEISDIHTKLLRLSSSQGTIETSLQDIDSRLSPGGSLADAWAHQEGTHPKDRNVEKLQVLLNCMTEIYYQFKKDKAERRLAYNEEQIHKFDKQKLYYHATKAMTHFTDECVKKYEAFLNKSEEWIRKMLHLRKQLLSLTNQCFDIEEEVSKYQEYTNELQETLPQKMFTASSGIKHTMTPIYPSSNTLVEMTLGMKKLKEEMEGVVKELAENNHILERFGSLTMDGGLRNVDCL
Chain of UniProt Q9HAZ1 (whole entry, looked up): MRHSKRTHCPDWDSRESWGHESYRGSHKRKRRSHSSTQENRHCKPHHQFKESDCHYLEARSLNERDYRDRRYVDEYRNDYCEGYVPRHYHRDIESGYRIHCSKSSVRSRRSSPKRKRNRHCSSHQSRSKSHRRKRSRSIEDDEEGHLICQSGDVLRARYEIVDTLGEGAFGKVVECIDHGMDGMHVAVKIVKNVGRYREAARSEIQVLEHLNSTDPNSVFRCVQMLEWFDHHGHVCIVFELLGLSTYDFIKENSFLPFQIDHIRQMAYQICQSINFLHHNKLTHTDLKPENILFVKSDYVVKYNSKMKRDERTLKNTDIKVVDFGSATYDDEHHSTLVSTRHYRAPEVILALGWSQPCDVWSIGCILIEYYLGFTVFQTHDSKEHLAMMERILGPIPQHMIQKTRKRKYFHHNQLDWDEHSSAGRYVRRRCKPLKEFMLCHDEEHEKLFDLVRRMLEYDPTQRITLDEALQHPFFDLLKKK
Chain of UniProt O14733 (whole entry, looked up): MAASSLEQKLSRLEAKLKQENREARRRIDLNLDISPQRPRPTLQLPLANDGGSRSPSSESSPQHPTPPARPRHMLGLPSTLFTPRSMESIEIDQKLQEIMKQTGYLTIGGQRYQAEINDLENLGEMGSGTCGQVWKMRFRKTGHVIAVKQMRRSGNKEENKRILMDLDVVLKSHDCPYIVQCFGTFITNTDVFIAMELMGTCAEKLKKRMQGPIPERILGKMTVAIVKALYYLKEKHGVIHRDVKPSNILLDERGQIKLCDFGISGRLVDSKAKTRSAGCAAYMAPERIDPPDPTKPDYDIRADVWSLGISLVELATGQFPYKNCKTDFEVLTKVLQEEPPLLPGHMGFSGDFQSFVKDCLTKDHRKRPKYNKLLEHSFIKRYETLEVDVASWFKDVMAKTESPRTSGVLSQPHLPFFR
Chain of UniProt P11362 (whole entry, looked up): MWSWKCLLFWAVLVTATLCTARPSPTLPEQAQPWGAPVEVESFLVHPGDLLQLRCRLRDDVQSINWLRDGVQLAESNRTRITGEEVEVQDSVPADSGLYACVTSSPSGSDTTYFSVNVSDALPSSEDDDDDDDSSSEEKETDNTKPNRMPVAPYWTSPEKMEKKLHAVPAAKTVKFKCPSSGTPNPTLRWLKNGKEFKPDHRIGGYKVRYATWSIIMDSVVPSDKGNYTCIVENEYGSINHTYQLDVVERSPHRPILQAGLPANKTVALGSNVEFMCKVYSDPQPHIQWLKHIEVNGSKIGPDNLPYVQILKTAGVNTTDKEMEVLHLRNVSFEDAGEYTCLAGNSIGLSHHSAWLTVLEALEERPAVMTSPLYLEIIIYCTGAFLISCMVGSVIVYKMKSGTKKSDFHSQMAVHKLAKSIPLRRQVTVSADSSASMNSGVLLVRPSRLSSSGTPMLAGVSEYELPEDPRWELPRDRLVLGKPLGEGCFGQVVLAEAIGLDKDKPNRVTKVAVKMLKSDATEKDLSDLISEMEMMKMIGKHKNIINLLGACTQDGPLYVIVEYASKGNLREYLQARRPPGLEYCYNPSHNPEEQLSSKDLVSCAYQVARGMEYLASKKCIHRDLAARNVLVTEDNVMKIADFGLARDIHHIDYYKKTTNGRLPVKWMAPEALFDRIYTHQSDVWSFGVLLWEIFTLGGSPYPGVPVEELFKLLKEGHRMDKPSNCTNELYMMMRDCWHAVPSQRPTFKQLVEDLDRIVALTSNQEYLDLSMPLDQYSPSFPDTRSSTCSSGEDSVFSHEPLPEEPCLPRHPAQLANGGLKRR

Block 1
SMILES: CS(=O)(=O)NCC[C@H](NC(=O)c1cncc2c1cnn2-c1ccc(F)cc1)c1ccnc(S(C)(=O)=O)c1
Effect on: cell-free assay
Method: competition with immobilised ligand
Concentration: 1 µM
target | remaining binding [%]
TNIK (Homo sapiens, UniProt Q9UKE5) | 100
Tyrosine-protein kinase ABL1, non-phosphorylated (ABL1, Homo sapiens, UniProt P00519) | 90
CLK4 (Homo sapiens, UniProt Q9HAZ1) | 85
MAP2K7 (Homo sapiens, UniProt O14733) | 100
DCLK3 (Homo sapiens, UniProt Q9C098) | 93
MET (Homo sapiens, UniProt P08581) | 79

Block 2
Target: Calcium/calmodulin-dependent protein kinase type II subunit alpha (CAMK2A, Homo sapiens, UniProt Q9UQM7)
Chain of UniProt Q9UQM7 (whole entry, looked up): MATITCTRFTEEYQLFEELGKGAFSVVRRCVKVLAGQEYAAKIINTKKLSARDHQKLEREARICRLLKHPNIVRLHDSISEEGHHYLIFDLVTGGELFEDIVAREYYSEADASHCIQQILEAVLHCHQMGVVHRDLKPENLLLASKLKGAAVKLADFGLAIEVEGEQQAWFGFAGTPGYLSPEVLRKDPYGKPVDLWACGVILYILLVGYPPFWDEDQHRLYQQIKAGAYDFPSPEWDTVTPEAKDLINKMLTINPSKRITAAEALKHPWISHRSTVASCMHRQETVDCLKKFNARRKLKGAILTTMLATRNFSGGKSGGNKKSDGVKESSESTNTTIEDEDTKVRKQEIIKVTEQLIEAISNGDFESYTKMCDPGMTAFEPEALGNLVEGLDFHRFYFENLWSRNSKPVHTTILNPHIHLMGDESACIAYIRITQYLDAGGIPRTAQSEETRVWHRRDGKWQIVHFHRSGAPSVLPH
Effect on: enzyme activity
Mode: inhibitor
Concentration: 10 µM
Structure (SMILES) | inhibition
C[C@H](CCC(=O)NCC(=O)O)[C@H]1CC[C@H]2[C@@H]3[C@H](O)C[C@@H]4C[C@H](O)CC[C@]4(C)[C@H]3CC[C@]12C | -10%
O=c1c(O)c(-c2ccc(O[C@@H]3O[C@H](CO)[C@@H](O)[C@H](O)[C@H]3O)c(O)c2)oc2cc(O)cc(O)c12 | -9%
O=c1ccc2nccc3c4ccccc4n1c23 | -22%

Block 3
Organism: Sarcocystis neurona
Effect on: parasite growth
Concentration: 10 µM
Time: 96 h
Notes: secondary screen
SMILES | inhibition [%]
CCn1cc(C(=O)O)c(=O)c2cc(F)c(N3CCNCC3)cc21 | -23.3
CC(=O)CC(c1ccccc1)c1c(O)c2ccccc2oc1=O (stereo not shown) | -23.4
CCS(=O)(=O)CCn1c([N+](=O)[O-])cnc1C | -20.9
CC(C(=O)O)c1ccc(CC2CCCC2=O)cc1 (stereo not shown) | -16.3
NS(=O)(=O)c1cc2c(cc1Cl)NCNS2(=O)=O | -2.9

Block 4
Compound: Cn1cnc2cc3c(Nc4cccc(Br)c4)ncnc3cc21
Effect on: enzyme activity
Mode: inhibitor
Concentration: 0.5 µM
Reference: control
target | remaining activity
FGFR1 (Homo sapiens, UniProt P11362) | 89.6%
TAOK2 (Homo sapiens, UniProt Q9UL54) | 103%
TBK1 (Homo sapiens, UniProt Q9UHD2) | 87.7%
MAPKAPK2 (Homo sapiens, UniProt P49137) | 104%
FGFR3 (Homo sapiens, UniProt P22607) | 98.6%
ARAF (Homo sapiens, UniProt P10398) | 119%
MAP3K5 (Homo sapiens, UniProt Q99683) | 110%
EPHA3 (Homo sapiens, UniProt P29320) | 82.9%
LCK (Homo sapiens, UniProt P06239) | 47.7%
CSNK1G2 (Homo sapiens, UniProt P78368) | 89.2%
GSK3B (Homo sapiens, UniProt P49841) | 101%
ULK2 (Homo sapiens, UniProt Q8IYT8) | 74.8%
CSNK1G3 (Homo sapiens, UniProt Q9Y6M4) | 88.1%
ACVR1B (Homo sapiens, UniProt P36896) | 111%
